{"data": "Earlier results that unrelated publications cite", "note": "Numbered parts are unrelated; values within a part may stem from several laboratories. ± gives the spread as reported.", "chain of UniProt Q9UNU6 (whole entry, unmodified, looked up)": "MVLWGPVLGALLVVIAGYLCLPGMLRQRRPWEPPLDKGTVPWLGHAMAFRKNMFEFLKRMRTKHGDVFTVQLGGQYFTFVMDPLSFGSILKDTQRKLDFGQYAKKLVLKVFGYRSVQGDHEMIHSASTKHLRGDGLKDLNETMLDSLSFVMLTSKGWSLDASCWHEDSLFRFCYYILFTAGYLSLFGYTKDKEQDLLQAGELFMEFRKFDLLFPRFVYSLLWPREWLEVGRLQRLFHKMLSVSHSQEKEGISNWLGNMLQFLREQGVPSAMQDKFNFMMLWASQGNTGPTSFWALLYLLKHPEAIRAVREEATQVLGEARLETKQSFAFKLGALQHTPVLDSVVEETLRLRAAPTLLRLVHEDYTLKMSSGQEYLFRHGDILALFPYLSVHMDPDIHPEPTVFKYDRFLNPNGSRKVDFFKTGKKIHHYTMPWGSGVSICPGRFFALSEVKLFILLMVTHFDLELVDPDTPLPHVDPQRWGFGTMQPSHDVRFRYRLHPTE", "chain of UniProt Q92570 (whole entry, looked up)": "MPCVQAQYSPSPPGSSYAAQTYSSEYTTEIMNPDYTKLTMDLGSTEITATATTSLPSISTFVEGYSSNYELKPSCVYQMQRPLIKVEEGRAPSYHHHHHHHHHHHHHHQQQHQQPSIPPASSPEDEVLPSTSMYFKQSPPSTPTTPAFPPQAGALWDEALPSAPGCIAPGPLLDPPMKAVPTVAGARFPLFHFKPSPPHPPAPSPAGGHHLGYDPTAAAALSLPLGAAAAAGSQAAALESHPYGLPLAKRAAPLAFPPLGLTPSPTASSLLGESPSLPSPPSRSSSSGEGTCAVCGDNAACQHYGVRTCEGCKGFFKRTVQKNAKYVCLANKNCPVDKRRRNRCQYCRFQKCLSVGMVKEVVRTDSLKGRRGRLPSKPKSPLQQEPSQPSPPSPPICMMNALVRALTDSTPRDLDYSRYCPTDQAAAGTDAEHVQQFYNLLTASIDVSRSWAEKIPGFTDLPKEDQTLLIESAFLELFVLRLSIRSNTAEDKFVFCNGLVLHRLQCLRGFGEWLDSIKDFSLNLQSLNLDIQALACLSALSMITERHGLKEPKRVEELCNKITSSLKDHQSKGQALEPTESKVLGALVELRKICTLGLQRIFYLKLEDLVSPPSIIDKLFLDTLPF"}
{"data": "Set 1", "organism": "Cryptosporidium parvum", "technique": "high-throughput screen", "tested at": "concentration not given"}
{"SMILES": "NC(=O)c1cccnc1", "activity": "inactive"}
{"SMILES": "CC1=C(C/C=C(\\C)CCC[C@H](C)CCC[C@H](C)CCCC(C)C)C(=O)c2ccccc2C1=O", "activity": "inactive"}
{"SMILES": "Nc1ccc2cn[nH]c2c1", "activity": "inactive"}
{"SMILES": "CC=CC(=O)N(CC)c1ccccc1C (mixture of isomers)", "activity": "inactive"}
{"SMILES": "Oc1ncnc2[nH]ncc12", "activity": "inactive"}
{"SMILES": "CN(C)CCc1c[nH]c2ccc(Cn3cncn3)cc12", "activity": "inactive"}
{"SMILES": "CCN(CC)CC1CCCCN1CC(=O)N1c2ccccc2C(=O)Nc2cccnc21 (centres unmarked)", "activity": "inactive"}
{"SMILES": "CC(Oc1c(Cl)cccc1Cl)C1=NCCN1 (centres unmarked)", "activity": "inactive"}
{"SMILES": "CN1CCC(=C2c3ccccc3CC(=O)c3sccc32)CC1", "activity": "inactive"}
{"SMILES": "CC(C)[C@H](N)C(=O)OCCOCn1cnc2c(=O)[nH]c(N)nc21", "activity": "inactive"}
{"SMILES": "NC[C@H]1CC[C@H](C(=O)Oc2ccc(CCC(=O)O)cc2)CC1", "activity": "inactive"}
{"SMILES": "CN1C(C(=O)Nc2ccccn2)=C(O)c2ccccc2S1(=O)=O.O", "activity": "inactive"}
{"SMILES": "CN1CCN(CCCN2c3ccccc3Sc3ccc(Cl)cc32)CC1", "activity": "inactive"}
{"SMILES": "CN(CCO)CC(O)Cn1cnc2c1c(=O)n(C)c(=O)n2C.O=C(O)c1cccnc1 (centres unmarked)", "activity": "inactive"}
{"SMILES": "CC[N+](C)(CC)CCOC(=O)C(O)(c1ccccc1)C1CCCCC1 (centres unmarked)", "activity": "inactive"}
{"SMILES": "CN1CCN(c2nc3cc(C(F)(F)F)ccc3n3cccc23)CC1", "activity": "inactive"}
{"SMILES": "Nc1ncn([C@@H]2O[C@H](CO)[C@@H](O)[C@H]2O)c(=O)n1", "activity": "inactive"}
{"SMILES": "CS(=O)(=O)c1ccc(C2=C(c3ccccc3)C(=O)OC2)cc1", "activity": "inactive"}
{"SMILES": "CN1CCC(=C2c3ccccc3CCc3sccc32)CC1.O=C(O)/C=C\\C(=O)O", "activity": "inactive"}
{"SMILES": "CO[C@@]1(NC(=O)Cc2cccs2)C(=O)N2C(C(=O)O)=C(COC(N)=O)CS[C@@H]21", "activity": "inactive"}
{"SMILES": "COC(=O)Nc1nc2ccc(C(=O)c3ccccc3)cc2[nH]1", "activity": "inactive"}
{"SMILES": "NS(=O)(=O)c1cc2c(cc1C(F)(F)F)NCNS2(=O)=O", "activity": "inactive"}
{"SMILES": "Cc1cccc(CCN2CCC(C(=O)c3ccc(NS(C)(=O)=O)cc3)CC2)n1.Cl.Cl", "activity": "inactive"}
{"SMILES": "Cc1noc(NS(=O)(=O)c2ccc(N)cc2)c1C", "activity": "inactive"}
{"SMILES": "CC(=O)O[C@]1(C(C)=O)CC[C@H]2[C@@H]3C=C(C)C4=CC(=O)CC[C@]4(C)[C@H]3CC[C@@]21C", "activity": "inactive"}
{"data": "Mixed results"}
{"SMILES": "C=C(C)[C@@H]1CC[C@]2(CO)CC[C@]3(C)[C@H](CC[C@@H]4[C@@]5(C)CC[C@H](O)[C@@](C)(COC(=O)/C=C/c6ccc(O)cc6)[C@@H]5CC[C@]43C)[C@@H]12", "tested on": "Plasmodium falciparum", "test system": "Dd2", "conditions": "concentration not given", "quantity": "antiplasmodial activity", "value": "active"}
{"SMILES": "O=C(c1ccc(F)cc1)N1CC(COc2ccc(Br)cc2)(C(=O)O)C1", "tested on": "PTGER2 (human)", "assay": "enzyme activity", "quantity": "IC50", "value": "1.3 µM"}
{"SMILES": "Clc1ccc(C(Cn2ccnc2)OCc2ccsc2Cl)c(Cl)c1 (centres unmarked)", "tested on": "7-alpha-hydroxycholest-4-en-3-one 12-alpha-hydroxylase (Homo sapiens, UniProt Q9UNU6)", "assay": "binding", "quantity": "Kd", "value": "~0.2 µM"}
{"SMILES": "Cc1[nH]c(/C=C2\\C(=O)Nc3ccc(C(=O)N[C@H](C)c4ccc(F)cc4)cc32)c(C)c1NC(=O)CCl", "tested on": "GRK5", "scale": "baseline: GRK2 IC50 over GRK5 IC50", "quantity": "selectivity ratio", "value": "1400 fold"}
{"SMILES": "CCc1c(Cl)c(O)c(Cl)c(O)c1C(=O)O[C@H]1[C@H](O)[C@H](OC)[C@H](OC/C2=C\\C=C\\C[C@H](O)/C(C)=C/[C@H](CC)[C@@H](O[C@@H]3OC(C)(C)[C@@H](OC(=O)C(C)C)[C@H](O)[C@@H]3O)/C(C)=C/C(C)=C/C[C@@H]([C@@H](C)O)OC2=O)O[C@@H]1C", "tested on": "Fusobacterium nucleatum", "test system": "HM-992", "quantity": "MIC", "value": "< 0.06 µg/mL"}
{"SMILES": "C[C@H](Cn1cnc2c(N)ncnc21)OCP(=O)(O)O", "test system": "octanol/water", "quantity": "logP", "value": 1.25}
{"SMILES": "C#Cc1cccc(Nc2ncnc3cc(OCCOC)c(OCCOC)cc23)c1", "test system": "human", "conditions": "concentration not given, added: with food", "quantity": "increase in bioavailability", "value": "~100%"}
{"SMILES": "CC(C)=CCC[C@@H](C)[C@H]1CC[C@@]2(C)C3=C(CC[C@]12C)[C@@]1(C)CC[C@H](O)C(C)(C)[C@@H]1CC3", "tested on": "CYP51 (zebrafish)", "assay": "substrate", "quantity": "turnover rate", "value": "3.2 nmol/min/nmol P450"}
{"SMILES": "Oc1ccc(-c2nc(-c3ccc(OC4CCCC4)cc3)no2)cc1", "tested on": "Lactobacillus gasseri", "test system": "HM-644", "quantity": "MIC", "value": "> 128 µg/mL"}
{"SMILES": "COc1cnc(-n2cnc(C)n2)c2c1c(C(=O)C(=O)N1CCN(C(=O)c3ccccc3)CC1)cn2COP(=O)(O)O", "test system": "HIV-1 patients", "conditions": "600 mg twice daily, day 8", "quantity": "plasma HIV-1 RNA decline", "value": "0.791 log10 copies/mL"}
{"SMILES": "CC(C)CCC[C@@H](C)[C@H]1CC[C@H]2[C@@H]3[C@H](O)CC4=CC(=O)CC[C@]4(C)[C@H]3CC[C@]12C", "tested on": "7-alpha-hydroxycholest-4-en-3-one 12-alpha-hydroxylase (Homo sapiens, UniProt Q9UNU6, W281F)", "assay": "substrate", "conditions": "W281F mutant", "quantity": "Km", "value": "0.54 µM"}
{"SMILES": "COc1cnc(-n2cnc(C)n2)c2[nH]cc(C(=O)C(=O)N3CCN(C(=O)c4ccccc4)CC3)c12", "tested on": "CYP3A4", "quantity": "metabolism share", "value": "21.2%"}
{"SMILES": "CC1CS(=O)(=O)CCN1/N=C/c1ccc([N+](=O)[O-])o1 (centres unmarked)", "tested on": "Trypanosoma cruzi", "test system": "CL Brener", "conditions": "trypomastigotes", "quantity": "IC50", "value": "20.1 ± 2.9 µM"}
{"SMILES": "COc1cc2ncnc(Nc3ccc(F)c(Cl)c3)c2cc1OCCCN1CCOCC1", "test system": "human", "conditions": "concentration not given, added: with food", "quantity": "increase in drug exposure", "value": "32%"}
{"SMILES": "Nc1ccn([C@@H]2O[C@H](CO)[C@@H](O)[C@@H]2O)c(=O)n1", "tested on": "dopamine transporter", "quantity": "IC50", "value": "> 10 µM"}
{"SMILES": "COc1ccc(-c2coc3cc(O)cc(O)c3c2=O)cc1", "tested on": "Caco-2 monolayers", "conditions": "50 µM, 5 days", "quantity": "TEER increase", "value": "≤ 36%"}
{"SMILES": "C[Si](C)(C)O[Si](C)(C)O[Si](C)(C)O[Si](C)(C)O[Si](C)(C)C", "quantity": "log Kow", "value": 9.41}
{"SMILES": "CNCc1ccc(-c2cc(-c3nc(-c4ccc(S(=O)(=O)C(C)C)cc4)cnc3N)on2)cc1", "test system": "mouse, plasma", "quantity": "unbound fraction", "value": "3%"}
{"SMILES": "Cc1ccc2[nH]c(CNCCCc3ccncc3)cc(=O)c2c1", "tested on": "DRD4 human", "quantity": "Ki", "value": "7.5 µM"}
{"SMILES": "Cn1c(=O)c2[nH]cnc2n(C)c1=O", "test system": "human", "quantity": "half-life", "value": "4 to 8 h"}
{"SMILES": "C[Si]1(C)O[Si](C)(C)O[Si](C)(C)O[Si](C)(C)O1", "tested on": "Pimephales promelas", "conditions": "concentration not given, added: 14C-labelled compound", "quantity": "bioconcentration factor", "value": "4300 L/kg wet weight"}
{"SMILES": "Cn1c(=O)c2c(ncn2C)n(C)c1=O", "tested on": "dopamine transporter", "quantity": "IC50", "value": "> 10 µM"}
{"SMILES": "O[C@]1(C(F)(F)F)CCCC[C@H]1Nc1ccc(F)cc1", "tested on": "estrogen receptor alpha", "assay": "radioligand binding", "quantity": "EC50", "value": "2.1 µM"}
{"SMILES": "O=C(NC[C@H]1CN(c2ccc(N3CCOCC3=O)cc2)C(=O)O1)c1ccc(Cl)s1", "test system": "healthy human subjects", "conditions": "intravenous", "quantity": "clearance", "value": "~10 L/h"}
{"SMILES": "COc1cccc(-c2ccc(NC(=O)C3=C(C(=O)O)CCC3)c(F)c2)c1", "tested on": "Nuclear receptor subfamily 4 group A member 3 (Homo sapiens, UniProt Q92570)", "assay": "agonist", "scale": "baseline: reference modulator", "quantity": "maximal activation", "value": "460%"}
{"note": "Repeated from above (mixed results):"}
{"SMILES": "C[Si](C)(C)O[Si](C)(C)O[Si](C)(C)O[Si](C)(C)O[Si](C)(C)C", "quantity": "log Kow", "value": 9.41}
{"SMILES": "O=C(NC[C@H]1CN(c2ccc(N3CCOCC3=O)cc2)C(=O)O1)c1ccc(Cl)s1", "test system": "healthy human subjects", "conditions": "intravenous", "quantity": "clearance", "value": "~10 L/h"}
{"SMILES": "COc1cnc(-n2cnc(C)n2)c2c1c(C(=O)C(=O)N1CCN(C(=O)c3ccccc3)CC1)cn2COP(=O)(O)O", "test system": "HIV-1 patients", "conditions": "600 mg twice daily, day 8", "quantity": "plasma HIV-1 RNA decline", "value": "0.791 log10 copies/mL"}
{"SMILES": "O[C@]1(C(F)(F)F)CCCC[C@H]1Nc1ccc(F)cc1", "tested on": "estrogen receptor alpha", "assay": "radioligand binding", "quantity": "EC50", "value": "2.1 µM"}
{"SMILES": "CNCc1ccc(-c2cc(-c3nc(-c4ccc(S(=O)(=O)C(C)C)cc4)cnc3N)on2)cc1", "test system": "mouse, plasma", "quantity": "unbound fraction", "value": "3%"}
{"SMILES": "Oc1ccc(-c2nc(-c3ccc(OC4CCCC4)cc3)no2)cc1", "tested on": "Lactobacillus gasseri", "test system": "HM-644", "quantity": "MIC", "value": "> 128 µg/mL"}
{"SMILES": "COc1cnc(-n2cnc(C)n2)c2[nH]cc(C(=O)C(=O)N3CCN(C(=O)c4ccccc4)CC3)c12", "tested on": "CYP3A4", "quantity": "metabolism share", "value": "21.2%"}
